Measurements of several laboratories.
Each line is one published result; not all experiments were run side by side. Values joined by “and” are separate records of one study, mostly repeats; a detail may differ. Numbers after ± are the reported error. ≈ marks a conversion by molar mass, not a printed value.

For `CN(C(=O)c1ccn2ncc(-c3ccc(C(N)=O)cc3)c2c1)c1ccc(C#N)cn1`, “luciferase total flux” read 8.55e+06 photons/s and 238000 photons/s and 2.12e+06 photons/s and 1.8e+06 photons/s and 1.07e+06 photons/s (Cryptosporidium parvum; whole-animal imaging; UGA2 Fluc, mouse; 10 mg/kg daily, day 7).
For `CCOC(=O)C1(Cc2cc(OC)cc(OC)c2)Oc2cc(F)ccc2N(Cc2cc(OC)cc(OC)c2)C1=O` (stereo not drawn), the inhibition was 59.6 ± 3.14% (Amaranthus retroflexus; fresh weight, greenhouse postemergence; postemergence, 150 g ai/ha, 21 days).
`COc1ccc(Cn2c3cc(=O)n(Cc4cccc(Cl)n4)c(C)c3c(=O)n2-c2ccccn2)cc1` — result for “normalized viral replication”: 0 (human respiratory syncytial virus; recombinant reporter virus; concentration not given, scale 0 to 100, with: cytidine 0.13 µM).
For `[O-][N+]1=C(c2ccc(Cl)cc2)C2=NCCCN2c2ccccc21`, the MIC90 was 2 µg/mL (Bacteroides fragilis).
For `CN(CCO)CCO.O=C(O)C(Cl)Cl`, the inhibition was 0% (Amaranthus retroflexus; herbicidal activity; 15 mg/mL, 21 days, pre-emergence greenhouse).
`CC[C@H](C)CCCCC(=O)N[C@@H](CCN)C(=O)N[C@H](C(=O)N[C@@H](CCN)C(=O)N[C@H]1CCNC(=O)[C@H]([C@@H](C)O)NC(=O)[C@H](CCN)NC(=O)[C@H](CCN)NC(=O)[C@H](CC(C)C)NC(=O)[C@@H](CC(C)C)NC(=O)[C@H](CCN)NC1=O)[C@@H](C)O` — result for “MIC fold change”: 1.26 (Escherichia coli; daily serial passaging; ATCC 8739; highest sub-MIC, 22 days; reference: initial MIC).
With `[O-][N+]1=C(c2ccccc2)C2=NCCN2c2ccccc21` the MIC50 was ≤ 0.06 µg/mL (Bacteroides fragilis; microbial growth).
`O=c1n(CCNCCOS(=O)(=O)c2ccccc2)c(=O)n(S(=O)(=O)c2ccccc2)c(=O)n1S(=O)(=O)c1ccccc1` gave an MLC of 32 ± 3 µg/mL (Aspergillus fumigatus; broth microdilution).
`O=C(CCN(CCC(=O)N[C@@H](Cc1c[nH]c2ccccc12)C(=O)O)C(=O)CCN(CCC(=O)N(CCC(=O)N[C@@H](Cc1c[nH]c2ccccc12)C(=O)O)CCC(=O)N[C@@H](Cc1c[nH]c2ccccc12)C(=O)O)C(=O)c1cc(C(=O)N(CCC(=O)N(CCC(=O)N[C@@H](Cc2c[nH]c3ccccc23)C(=O)O)CCC(=O)N[C@@H](Cc2c[nH]c3ccccc23)C(=O)O)CCC(=O)N(CCC(=O)N[C@@H](Cc2c[nH]c3ccccc23)C(=O)O)CCC(=O)N[C@@H](Cc2c[nH]c3ccccc23)C(=O)O)cc(C(=O)N(CCC(=O)N(CCC(=O)N[C@@H](Cc2c[nH]c3ccccc23)C(=O)O)CCC(=O)N[C@@H](Cc2c[nH]c3ccccc23)C(=O)O)CCC(=O)N(CCC(=O)N[C@@H](Cc2c[nH]c3ccccc23)C(=O)O)CCC(=O)N[C@@H](Cc2c[nH]c3ccccc23)C(=O)O)c1)N[C@@H](Cc1c[nH]c2ccccc12)C(=O)O` gave an EC50 of 6.9 ± 0.14 µM (human adenovirus 2; viral replication; HEL cells).
With `CCCC/C=C/C(=O)N[C@@H](Cc1csc2ccccc12)C(=O)N[C@H]1COC(=O)[C@@H]2C[C@@H](C)CN2C(=O)[C@H](C)NC(=O)[C@@H]2CCCCN2C(=O)[C@@H]2CCCN2C1=O` the RNA release was 0.239 and 0.273 and 0.285 (human coronavirus OC43; Huh-7 CLPP knock-out 1; concentration not given, unit not given; reference: DMSO).
`CCOC(=O)C1(Cc2cc(F)c(F)c(F)c2)Oc2cc(F)ccc2N(Cc2cc(F)c(F)c(F)c2)C1=O` (stereo not drawn) has an inhibition of 68.5 ± 4.28% (Amaranthus retroflexus; fresh weight, greenhouse postemergence; postemergence, 150 g ai/ha, 21 days).
`CC(C)[C@H]1NC(=O)[C@H](Cc2ccccc2)NC(=O)[C@@H](C(C)C)NC(=O)[C@@H](C)NC(=O)[C@H](CO)NC(=O)[C@@H](Cc2c(-c3ccc(-c4ccc(-c5ccccc5)cc4)cc3)[nH]c3ccccc23)NC(=O)[C@@H](C)NC1=O` gave an MIC90 of > 50 µM (Vibrio vulnificus; broth dilution).
For `CCOC(=O)C1(CC=C(C)C)Oc2cc(F)ccc2N(CC=C(C)C)C1=O` (stereo not drawn), the inhibition was 64.2 ± 2.77% (Amaranthus retroflexus; fresh weight, greenhouse postemergence; postemergence, 150 g ai/ha, 21 days).
`FC(F)(F)c1cccc(CNc2nc(NC3CCN(Cc4ccccc4)CC3)c3nc[nH]c3n2)c1` — result for “mRNA fold change”: 1.15 (Cryptococcus neoformans; RNA-seq, measured: PLC2 (CNAG_02968); 48 µg/mL, 3 h; reference: untreated).
`CN(C)S(=O)(=O)c1ccc(S(=O)(=O)N2CCC(n3c(=O)[nH]c4ccccc43)CC2)cc1` gave a rifampicin concentration of 250 µg/mL (Escherichia coli; Keio wild type; concentration not given, 96 h).
The inhibition of `CCOC(=O)C1(Cc2ccccc2)Oc2cc(C)ccc2N(Cc2ccccc2)C1=O` (stereo not drawn) is reported as 43.1 ± 4.26% (Amaranthus retroflexus; fresh weight, greenhouse postemergence; postemergence, 150 g ai/ha, 21 days).
For `CC(C)C[C@H](NC(=O)[C@@H](N)CO)C(=O)N[C@@H](Cc1c[nH]c2ccccc12)C(=O)N[C@@H](CCC(=O)O)C(=O)N[C@@H](CC(N)=O)C(=O)N[C@@H](Cc1ccccc1)C(=O)N[C@@H](CCCCN)C(=O)N[C@@H](CC(N)=O)C(=O)N[C@@H](C)C(=O)NCC(=O)N[C@@H](CCCCN)C(=O)N[C@@H](CCCCN)C(N)=O`, “geometric mean MIC” read 256 µM (all tested microorganisms).
The inhibition of `CCc1nn(C)c2nc(-c3ccc(C(=O)O)cc3)nc(NCc3ccccc3)c12` is reported as -1.94% and -14.1% (Cryptosporidium parvum; parasite growth, immunofluorescence imaging; HCT-8, Iowa; 74.1 nM).
The MBEC of `Oc1c(Br)cc(Br)c2nc3ccccc3nc12` is reported as > 200 µM (Enterococcus faecalis; Calgary biofilm device; OG1RF).
With `[O-][N+]1=C(c2ccccc2)C2=NCCCN2c2ncccc21` the MIC90 was ≤ 0.06 µg/mL (Bacteroides fragilis).
For `NCCc1cccc(-c2nc(=O)c3ccccc3s2)n1`, the EC50 was > 100 µM (Acinetobacter baumannii; cell growth, inhibitor; NCTC 13424 XDR; 5% CO2).
The survival of `Cc1cc(C(=O)Nc2nc3cccc(C)c3n2[C@H]2CCCCN(C(=O)/C=C/CN(C)C)C2)ccn1` is reported as 56.3% and 58.9% and 45.4% and 64.5% (Trypanosoma brucei brucei; 2T1 CLK1 overexpressing; 0.0098 µM, DMSO pretreated; reference: maximum).
For `CC(C)[C@H]1NC(=O)[C@H](Cc2ccccc2)NC(=O)[C@@H](C(C)C)NC(=O)[C@@H](C)NC(=O)[C@H](CO)NC(=O)[C@@H](Cc2c(-c3ccc(-c4cccc5ccccc45)cc3)[nH]c3ccccc23)NC(=O)[C@@H](CO)NC1=O`, the MIC90 was > 50 µM (Vibrio vulnificus; broth dilution).
`CC(O)CN(CC(C)O)CC(C)O.O=C(O)C(Cl)Cl` (stereo not drawn) gave an inhibition of -53% (Amaranthus retroflexus; herbicidal activity; 15 mg/mL, 21 days, post-emergence greenhouse).
For `OB(O)c1ccc(C(F)(F)F)s1`, the biofilm formation was 48.5% and 38.4% and 40.9% (Staphylococcus aureus; crystal violet; USA300 wild type; 5 µM; reference: wild type untreated).
For `[O-][N+]1=C(c2ccsc2)C2=NCCCN2c2ccccc21`, the MIC90 was 0.5 µg/mL (Bacteroides fragilis).
With `CCOC(=O)C1(CC#N)Oc2cc(F)ccc2N(CC#N)C1=O` (stereo not drawn) the inhibition was 59.9 ± 3.64% (Amaranthus retroflexus; fresh weight, greenhouse postemergence; postemergence, 150 g ai/ha, 21 days).
`CC[C@H](C)[C@H](NC(=O)[C@H](CC(C)C)NC(=O)[C@H](CC(C)C)NC(=O)[C@H](CC(=O)O)NC(=O)[C@@H](NC(=O)[C@H](CCC(=O)O)NC(=O)[C@H](CCCCN)NC(=O)[C@H](Cc1ccc(O)cc1)NC(=O)[C@H](CCCCN)NC(=O)[C@H](Cc1c[nH]cn1)NC(=O)CNC(=O)CN)[C@@H](C)O)C(=O)N[C@@H](CC(C)C)C(=O)N[C@@H](Cc1ccccc1)C(=O)N[C@@H](CCCCN)C(=O)N[C@@H](CC(=O)O)C(=O)N[C@@H](CC(=O)O)C(=O)N[C@@H](Cc1ccc(O)cc1)C(=O)N[C@@H](Cc1ccccc1)C(=O)N[C@@H](C)C(=O)N[C@@H](CCCCN)C(=O)N[C@@H](CCCCN)C(=O)N[C@@H](CC(N)=O)C(=O)N[C@@H](CCC(=O)O)C(=O)N[C@@H](CCC(=O)O)C(=O)N[C@@H](CCCNC(=N)N)C(=O)N[C@@H](CCCCN)C(N)=O` has a selectivity index of > 67 (hepatitis C virus; Huh-7 ET replicon; reference: TC50 over IC50).
The MIC50 of `COc1ccc(C2=[N+]([O-])c3ccccc3N3CCCN=C23)cc1` is reported as 1 µg/mL (≈ 3.25 µM) (Bacteroides fragilis; microbial growth).
The bactericidal rate of `CC[C@H](C)[C@H](NC(=O)[C@H](CC(C)C)NC(=O)[C@H](CC(=O)O)NC(=O)[C@H](CCCNC(=N)N)NC(=O)[C@H](Cc1c[nH]c2ccccc12)NC(=O)[C@@H](N)CC(C)C)C(=O)N[C@@H](CS)C(=O)N[C@@H](CC(C)C)C(=O)N[C@@H](CS)C(=O)N[C@@H](CCCNC(=N)N)C(=O)N[C@@H](CC(N)=O)C(=O)N[C@@H](CCCNC(=N)N)C(=O)N[C@@H](CCCNC(=N)N)C(=O)N[C@@H](CS)C(=O)N[C@@H](CC(N)=O)C(=O)N[C@@H](CCCNC(=N)N)C(=O)NCC(=O)N[C@@H](CCC(N)=O)C(=O)N[C@@H](CC(C)C)C(=O)N[C@@H](Cc1ccccc1)C(=O)N1CCC[C@H]1C(=O)NCC(=O)N[C@@H](Cc1c[nH]c2ccccc12)C(=O)N[C@@H](CS)C(=O)N1CCC[C@H]1C(=O)NCC(=O)N[C@@H](Cc1c[nH]c2ccccc12)C(=O)N[C@@H](Cc1c[nH]c2ccccc12)C(=O)N[C@@H](CC(C)C)C(=O)N[C@@H](CCCNC(=N)N)C(=O)N[C@@H](CS)C(=O)N[C@@H](CS)C(=O)N[C@@H](CCCNC(=N)N)C(=O)N[C@@H](CCCNC(=N)N)C(N)=O` is reported as 93.8% (Acinetobacter baumannii; colony count; carbapenem-resistant, PBS; 20 µg/mL, 2 h).

A few entries again:
With `CCOC(=O)C1(CC#N)Oc2cc(F)ccc2N(CC#N)C1=O` (stereo not drawn) the inhibition was 59.9 ± 3.64% (Amaranthus retroflexus; fresh weight, greenhouse postemergence; postemergence, 150 g ai/ha, 21 days).
`CC[C@H](C)[C@H](NC(=O)[C@H](CC(C)C)NC(=O)[C@H](CC(C)C)NC(=O)[C@H](CC(=O)O)NC(=O)[C@@H](NC(=O)[C@H](CCC(=O)O)NC(=O)[C@H](CCCCN)NC(=O)[C@H](Cc1ccc(O)cc1)NC(=O)[C@H](CCCCN)NC(=O)[C@H](Cc1c[nH]cn1)NC(=O)CNC(=O)CN)[C@@H](C)O)C(=O)N[C@@H](CC(C)C)C(=O)N[C@@H](Cc1ccccc1)C(=O)N[C@@H](CCCCN)C(=O)N[C@@H](CC(=O)O)C(=O)N[C@@H](CC(=O)O)C(=O)N[C@@H](Cc1ccc(O)cc1)C(=O)N[C@@H](Cc1ccccc1)C(=O)N[C@@H](C)C(=O)N[C@@H](CCCCN)C(=O)N[C@@H](CCCCN)C(=O)N[C@@H](CC(N)=O)C(=O)N[C@@H](CCC(=O)O)C(=O)N[C@@H](CCC(=O)O)C(=O)N[C@@H](CCCNC(=N)N)C(=O)N[C@@H](CCCCN)C(N)=O` has a selectivity index of > 67 (hepatitis C virus; Huh-7 ET replicon; reference: TC50 over IC50).
